Results gathered from unrelated publications.
Every numbered part comes from another study and shows a few of its results, in no order.
Chain of UniProt Q84WU6 (whole entry, looked up): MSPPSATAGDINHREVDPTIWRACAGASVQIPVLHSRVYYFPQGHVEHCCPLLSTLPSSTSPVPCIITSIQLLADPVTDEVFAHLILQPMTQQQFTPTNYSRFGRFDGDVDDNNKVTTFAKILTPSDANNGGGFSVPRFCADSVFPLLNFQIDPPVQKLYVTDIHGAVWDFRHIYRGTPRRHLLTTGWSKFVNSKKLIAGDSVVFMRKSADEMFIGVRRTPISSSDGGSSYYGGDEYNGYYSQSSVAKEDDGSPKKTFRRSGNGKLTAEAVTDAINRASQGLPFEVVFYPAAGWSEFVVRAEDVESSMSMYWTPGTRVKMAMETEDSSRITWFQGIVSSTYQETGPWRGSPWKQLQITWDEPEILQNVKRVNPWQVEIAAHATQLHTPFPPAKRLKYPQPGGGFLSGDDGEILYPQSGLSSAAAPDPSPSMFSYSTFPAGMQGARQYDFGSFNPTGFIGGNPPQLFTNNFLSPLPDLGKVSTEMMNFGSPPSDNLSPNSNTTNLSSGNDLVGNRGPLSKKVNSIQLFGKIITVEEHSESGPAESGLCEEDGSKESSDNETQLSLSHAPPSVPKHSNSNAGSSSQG

Block 1 — method: RNA Bind-n-Seq; molecule type: RNA; sample: in vitro; concentration: 20 nM; notes: 6-mer, flanks averaged, single round; added: 150 mM KCl; relative to: input library; direction: higher = stronger binding
Target: TAR DNA-binding protein 43, full length, His tag (TARDBP, Homo sapiens, UniProt Q13148, residues 1-414)
Strand | 6-mer enrichment (R)
GUCUUA | 0.604
CCGUUG | 0.745
AUGUAU | 0.833
GUCUAG | 0.857
AUAUUC | 0.562
CGGUCU | 0.728
UAACCU | 0.586
AGAUGG | 1.48

Block 2 — method: protein-binding microarray; molecule type: hairpin DNA; sample: in vitro; concentration: not given; relative to: not given; direction: higher = stronger binding
Target: Hepatocyte nuclear factor 3-beta, forkhead domain (FOXA2, Homo sapiens, UniProt Q9Y261, residues 142-269)
Notes: whole hairpin DNA, median over replicate spots
Target sequence (chain): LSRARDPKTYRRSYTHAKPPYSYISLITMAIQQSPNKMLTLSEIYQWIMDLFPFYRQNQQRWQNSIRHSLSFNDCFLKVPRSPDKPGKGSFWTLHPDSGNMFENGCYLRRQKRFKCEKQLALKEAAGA
Strand | median fluorescence [a.u.]
GAGGCCATGCAAACAACGCCTCCTGGCGTTGTTTGCATGGCCTCACACTC (5mC at 14) | 3780
GAGGCCATGCAAACAACGCCTCCTGGCGTTGTTTGCATGGCCTCACACTC | 3720
GAGGCCATGTAAACACGGCCTCCTGGCCGTGTTTACATGGCCTCACACTC | 3840
GAGGCCATGTGACCAACGCCTCCTGGCGTTGGTCACATGGCCTCACACTC (5mC at 34) | 3330
GAGGCCATGTTACCAACGCCTCCTGGCGTTGGTAACATGGCCTCACACTC | 3000
GAGGCCTTGTAACCAACGCCTCCTGGCGTTGGTTACAAGGCCTCACACTC | 2760
GAGGCCATCGAAACAACGCCTCCTGGCGTTGTTTCGATGGCCTCACACTC | 3230
GAGGCCATGCAAACAACGCCTCCTGGCGTTGTTTGCATGGCCTCACACTC (5mC at 36) | 3730

Further values, each from its own experiment
B1: ARF14 497-605 (Arabidopsis thaliana, UniProt Q9LQE8); chain SPTEIQSKQFSSTRTCTKVQMQGVTIGRAVDLSVLNGYDQLILELEKLFDLKGQLQARNQWEIAFTNNEEDKMLVGEDPWPEFCNMVKKIFIYSKEEVKNLKSRKSLSS
Molecule | tested on | assay | conditions | scale | endpoint | value
B1 (ARF14 497-605) | ARF17 (Arabidopsis thaliana, UniProt Q84WU6) | two-hybrid | weak activation fusion | relative to: out of 3 tests, higher = firmer interaction | positive tests | 0
CC(C)C[C@H](NC(=O)[C@@H](O)[C@H](N)Cc1ccccc1)C(=O)O | A-375 |  | 100 µM, 18 h |  | viability | 93%

Some of these lines once more (block 2):
Strand | median fluorescence [a.u.]
GAGGCCATGCAAACAACGCCTCCTGGCGTTGTTTGCATGGCCTCACACTC | 3720
GAGGCCATGCAAACAACGCCTCCTGGCGTTGTTTGCATGGCCTCACACTC (5mC at 36) | 3730
